Published values pooled from the literature.
Each numbered part is a random draw from the data of one study; scales do not carry over between parts.

Series 1 — method: RNA Bind-n-Seq; form: RNA; medium: in vitro; tested at: not given; relative to: input RNA pool; direction: higher = stronger binding
Target: RING finger protein unkempt homolog, zinc fingers 1-6, GST-SBP tag (UNK, Homo sapiens, UniProt Q9C0B0, residues 30-357)
Notes: RNA with constant flanks, human-mouse chimeric sites, ends assumed
All sequences stand within: GGGAGUUCUACAGUCCGACGAUC … CAACAGAGGAUUGAGCAUCA
Target sequence (chain): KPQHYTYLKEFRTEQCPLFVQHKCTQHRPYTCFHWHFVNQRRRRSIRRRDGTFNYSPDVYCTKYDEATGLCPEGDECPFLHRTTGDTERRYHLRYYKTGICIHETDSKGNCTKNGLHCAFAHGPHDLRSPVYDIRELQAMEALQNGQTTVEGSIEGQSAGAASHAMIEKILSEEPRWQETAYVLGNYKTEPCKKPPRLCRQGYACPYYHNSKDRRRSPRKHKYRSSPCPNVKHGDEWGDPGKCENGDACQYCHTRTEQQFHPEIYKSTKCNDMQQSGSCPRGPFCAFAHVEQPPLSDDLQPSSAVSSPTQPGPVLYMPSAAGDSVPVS
Oligonucleotide	bound/input enrichment [ratio]
AGAAUCUUGGGACUGUUUUACUUAAUUGGUCAUUGAUAGCUUAACAAACAUGGAGAUAAGAUUAGAAGUUUUGACAUCAACAGGUAUCAAGCAGAAAAAACCAUGGCCACGUGUCUCCUG	0.454
UACUCAACUUUCUUGCCACAUUUUGAAUUCCAAGAUGUUAUUCCUCCAGAUGACUUCCUAACGAGUGAUGAAGAAGUAGAUUUGGUUUUAUUUGGAACUAUGAGAGGACAAGUUGUUGGA	0.225
AGGAGGAGGUUAAAGGGUGAGAGUGGGGUGGAAGACUGUGUCAUGGCUCUGGAGACAUUGUUUAGUGUCCUGCUUUCUCUGUGCAGACUUAUGGCUCCUUACACGCCCUUUCUGACUGAG	0.0792
UACUCAACUUUCUUGCCACGUUUUGAAUUCCAAGACAUUAUUCCUCCAGAUGACUUCCUAACUAGUGAUGAAGAGCAAGAUUUGGUUUUAUUUGGAACUAUGAGAGGACAAGUUGUUGGA	0.244
AAGCAACGCAAACUUGAAACAAUUCGUUAUCUUGCAGCCUCAGUGUUCACUUGCUUGGCGAUAGCAUUGGGGUUUUAUAGGUUCUGGGGAAGUAGUAGACGAUGAUGCUGCCGCUGCUGC	0.747
GGCUGCUGGUGACUGUCCUGGAGUGGCUGGAGUUCCCGCCGGAGCGCGGCCAGACUAAUUUUAGAAAAUGCCAAGUAGGAAAUUUGCUGAGGGUGAAGUGGUCAGAGGCCGAUGGCCUGG	5.83
AAAAUAGACUAUGGCGAGUACAUGGAUAAAAACAAUGUGAGGCGGCAAGCAACAACAAUCAUAGCUGAUAACAUUAUAUUUCUGAGUGACCAGACAAAAGAAAAGGCGUAGAAAGGAUGA	3.05
GGAAGUACAAUGAUGGAGAUUGAUGGUGACAAAGGCAAGCAGGGCGGUCCCACCUACUACAUAGACACCAAUGCCCUCCGCGUGCCCAGGGAGAACAUGGAGGCCAUCUCACCACUCAAG	0.267
GAAACAUUUAAAUUUAAAGAAGCUGUUGUUCUAGGAAGUACGGACUUUCUAGAAGAUGAUAUAGAGAAAAUUGUAGAAGAACUGGGAAAAGAAUACAAGGGCAACGCCUACCAUCUGAUG	1.16
ACCUCCCCCUCCCGCCUCACCCCACCCCCGCUUUUUGAAAGUGUGUUGGCGUUUCUUUUCCUUCCCCAUACAAAGUGGUUUUUACCACCCCCGCAAGGGUCUAUCGAAGGGCUUGACGGA	0.654
GGCUGCUGGUGACUGUCCUGGAGUGGCCGUGUCACCGGCCGGAGCGCGGCCAGACUAAUUUUAGAAAAUGCCAAGUAGGAAGUUUGUUGAGGGUGAAGUGGUCAGAGGUCGAUGGCCUGG	4.33

Series 2 — method: protein-binding microarray; form: double-stranded DNA, one strand shown; medium: in vitro; tested at: 940 nM top; notes: 60-bp whole probe; together with: salmon DNA 0.4 mg/ml; relative to: random background probes; direction: higher = stronger binding; all sequences stand within: GCCTAGCAC … GTCTTGATTCGCTTGACGCTGCTG
Target: Interferon regulatory factor 5, full length, phosphomimetic (IRF5, Homo sapiens, UniProt Q13568-2, residues 1-514, S451D/S453D/S456D/S462D)
Oligonucleotide	fitted relative affinity [z-score]
TTCGGACTGCTTTTCCTTTAGTGCTAG	-0.221
TCACTTAGGTTTTCTGGTACTGTGCTA	0.369
TCATCTTTCATTGCTGCACTGTGCTAG	1.44
TTAGGACTGGGGAATCGGTTAGTGCTA	-0.225
TTAGGACTGGGGACGGGGTTAGTGCTA	0.886
TTAGGTCTCGGTACCGGTTAGTGCTAG	4.68
GACGGTATCGATACTGGGGACGTGCTA	9.36
TTAGGTATCGGGTATCGGTTCGTGCTA	7.18
TAGTTGCAAGCCATGGGTGGGTGCTAG	-0.404
TTAGACTTCGGGTATCGATTAGTGCTA	2.46
GTCACATTGCACAATCTTAATGTGCTA	0.0505
TTAGGTATCGGGTATCGGCTAGTGCTA	6.98
TCACTTTACACACATCATCTTGTGCTA	1.37
TCACCGTTTCTTCTAGAACTGTGCTAG	0.505
TTCTATATTTGCTTCAGGTTGTGCTAG	0.622
TTATGACTGGACACTGGGTTAGTGCTA	0.0178
GCGATCCTCTCACCTCAGCCTGTGCTA	0.804
GCCGGTATCGGGTTTCGGGACGTGCTA	6.51
TCATCTTTATGCACTCTCACTGTGCTA	1.71
TTAGGTAGCCTTCTCCTTTAGTGCTAG	-0.353
CTCCAACAAGGCTATCCCTCGTGCTAG	-0.253
AGAGCTTGTAGCCATCTTTGGTGCTAG	-0.534
GACTGTTTCCTTTCCCTGACGTGCTAG	1.72
TGAGGTCTCCTTATCCTTTAGTGCTAG	0.22
TTAGGCATCCTACTGCTTTAGTGCTAG	-0.169

Series 3 — method: DNA-protein interaction ELISA; form: double-stranded DNA, one strand shown; medium: in vitro, bacterial lysate; tested at: not given; notes: whole dsDNA probe, crude lysate protein; relative to: highest signal in screen; direction: higher = stronger binding
Target: Probable WRKY transcription factor 11, DNA-binding domain (WRKY11, Arabidopsis thaliana, UniProt Q9SV15, residues 228-325)
Construct (chain): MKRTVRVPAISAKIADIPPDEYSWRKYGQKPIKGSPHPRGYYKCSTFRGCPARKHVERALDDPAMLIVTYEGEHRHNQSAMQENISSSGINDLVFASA
Oligonucleotide	relative absorbance
AAAAAACGGTCGCGATCGTTAATGATAAAA	18.2 % of maximum
AAAAAACCCGTTCTACCTTATTCCTGAAAA	13 % of maximum
AAAAAAGCTGTCACTGTAGTCGGTCCAAAA	17.9 % of maximum
AAAAAAGTGTTTGTGCTTCTCTCTGTAAAA	15.3 % of maximum
AAAAAAACACCTGTATAGCATGGACGAAAA	19.6 % of maximum

Series 4 — method: RNA Bind-n-Seq; form: RNA; medium: in vitro; tested at: 365 nM; relative to: no-protein control; direction: higher = stronger binding
Target: RNA binding protein fox-1 homolog 2, RRM domain, GST-SBP tag (RBFOX2, Homo sapiens, UniProt O43251-10, residues 100-194)
Notes: natural RNA segment, single round, ends assumed
All sequences stand within: GGGAGUUCUACAGUCCGACGAUC … UGGAAUUCUCGGGUGCCAA
Construct (chain): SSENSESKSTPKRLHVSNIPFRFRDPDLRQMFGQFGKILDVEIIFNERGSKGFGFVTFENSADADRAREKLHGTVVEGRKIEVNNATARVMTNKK
Oligonucleotide	RBNS enrichment (R)
CUCAAAAAGUCUGUGGUUCAUUUCCAGUAUUGUGAAUAUUUAGUUUAUGUGGCCGUUUCUUUGUUUCUUUGAACAGUGGGAUUUUCAGUGAAAAAGUACCCUCUUUUUCA	1.01
UUGCUCUGUAGCCAUGUGAAGCUUGCUAGCCGCGGCUGUACAUCCUGUGACUUCCACCUUGGGUUUAGUAAUGGGAGCUUGAGAUUGGAGAGCUGAGUCCUCUGUGGGUU	0.611
GAGCCCUUUAAGAUGAUAAAGGACCCAAUGCAGGUAAUCCUGUUUUUGGACUCACGUAAUGUAGAAUGCAAAGUUUAGUGAUUAUUUAAUCUGGGCCUAAGCUAGUGAGA	1.05
CAACAGUACCUCUCUUCUAAUGGGCUUCAGUCCUCCACUGAGGCAGAAUCUCUGCUGUGGGGAGAGAGAACAAACUGGAUGCUAUUGUGAGACGGGAGGGUGGAGUGAGA	0.631
AAGGCUAACUUCUUUUCACUGUUGUGACCCUUUGCAAAAUGUAUGUUACAAUAGAUAGUGUCAUGUUGCAGGUUCAACGUUAUUUACAUGUAAAUAGACAAAAGGAAACA	0.472
CAUUUAGUUCACUGCUAAACAAAUUAAAGCACACUUUUCAGGACUUGCUGGGUCACCUUUUCCUGAGGAAUGAUACAGAAGAGUGUUUUUUCAUAAACUGGACCAUAAUU	0.816
UGGCUUGGUGCUCAAAGGCACUUGCUGCUCUUGCAGAAGGCCAAAAGAUGUGAUUUAGUUCCUAGCCCAUCAGGCAGCUCACAGCCACAUGACUAUAACUCUAGACCCAG	0.213
AAAAAAAUCUCAAGCAAACUUGGAGUGGCAGUCCAGGGCAUGUCGCAGGAGCAGGAGUGGCUCCAAGCUGUGCUCUCCAUGAACUCUGGCUCUGGGGAGAUUUCUAGUAA	0.932
GGUGGAGGUGUUAUUUGUGCUUUAGAAGAUACUUGCUGUUGGCUGGGCUACUGUAUACAGUGUACAAUGUGUAUUUCUUCAACCAUAUAUUUUAAAAAGACGUACAUAGA	0.551
CCCACAGCCUUCUGGCUGCGACAUUAUAGAAUCGGCCGUGUCCCCCCUGGUGGGGGAUUGGGGAUCUGUGUUUAGCCAUUUAUAUCUACUUUAGCUGUUAAAGAGGUCCA	0.253
AUCUCUAGCAAGCCUGUUUCUUGUCAGGUAGCCCAGGAUGGCCUUGAACUCUUAAUCCUCCGCCUUGGCCCUCUAAGGGCUGCUAGUCCGAGUGUGGACAACCACACCUG	0.319
AGCACUUACAUCUCUAUUGCUUUAACAGAAGGAUACUACUUCAGGAAAAUAUAUGUAAUAUGUAAAAAUAUGAAUGACUAUGUAUUCAAUAAAAAUAAUAUAGCACUGUA	0.694

Series 5 — method: protein binding microarray; form: double-stranded DNA, one strand shown; medium: in vitro; tested at: not given; relative to: not given; direction: higher = stronger binding
Target: Histone acetyltransferase KAT6A, winged helix 1, GST fusion (KAT6A, Homo sapiens, UniProt Q92794, residues 1-85)
Notes: 8-mer, flanks averaged, mean of 2 arrays, mostly near background
Residues (chain): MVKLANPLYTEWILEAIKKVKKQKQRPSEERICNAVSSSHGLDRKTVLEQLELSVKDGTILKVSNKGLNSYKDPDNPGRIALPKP
Oligonucleotide	E-score
AAGCCGGA	0.163
AACGATGG	-0.119
ATCCCTCG	-0.027
GATTGGAA	-0.187
GACCTCGC	0.197
TCGCGCGA	0.401
CCCCATGC	-0.0257
CAAGGAAA	-0.13
ACAACTCC	-0.0823
AACCCCCG	0.266
ACAACGCT	0.00857
CGACAGCA	-0.00942
CAAGCCAG	-0.326
CCAACGCA	-0.0477
CGGTGGGC	0.156
CCGGACAG	0.0406
GGAGAGCA	-0.159
ATGGATGC	-0.135
GCCAGATA	-0.174
TTCGCGAA	0.0659
TCGCTGCA	0.0751
ATGCCGTC	0.381
CCAACGCG	0.33
GCATGAGA	-0.143
AGGGCAGG	-0.246
